Experimental data gathered from unrelated publications.
Each numbered part is a random draw from the data of one study; scales do not carry over between parts.

Study 1
Target: Ras GTPase-activating protein-binding protein 1, full length (G3BP1, Homo sapiens, UniProt Q13283)
Sequence of UniProt Q13283 (whole entry, looked up): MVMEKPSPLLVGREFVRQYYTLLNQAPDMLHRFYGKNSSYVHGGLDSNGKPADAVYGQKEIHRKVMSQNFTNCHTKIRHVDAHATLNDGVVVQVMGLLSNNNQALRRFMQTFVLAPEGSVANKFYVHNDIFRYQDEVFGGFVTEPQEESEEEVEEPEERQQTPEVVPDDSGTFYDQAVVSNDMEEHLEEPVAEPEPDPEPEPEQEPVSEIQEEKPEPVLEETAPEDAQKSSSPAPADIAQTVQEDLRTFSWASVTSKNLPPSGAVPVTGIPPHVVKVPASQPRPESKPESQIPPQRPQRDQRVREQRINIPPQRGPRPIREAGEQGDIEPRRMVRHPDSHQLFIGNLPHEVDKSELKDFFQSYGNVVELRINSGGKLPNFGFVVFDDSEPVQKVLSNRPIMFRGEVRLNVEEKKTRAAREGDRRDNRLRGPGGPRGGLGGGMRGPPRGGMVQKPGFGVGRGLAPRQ
Method: RNA Bind-n-Seq
Molecule type: RNA
Matrix: in vitro
Tested at: 200 nM
Notes: whole 134-nt RNA, ends assumed
Together with: 150 mM KCl
Reference: input library
Direction: higher = stronger binding
All sequences stand within: GGGAGUUCUACAGUCCGACGAUC … UGGAAUUCUCGGGUGUCAAGG
| Sequence | log2 enrichment |
| --- | --- |
| GUCCUGUGCUACACAUCGUAUGUACCGAAUCAAAUUUAAAUUUUUAAACCCCCCCAAAAAAGUAUUAUGUUACGCCGUUCGGAUCUGCAC | 0.0825 |
| CCUGUGCUACACAUCGUAUGUACCGAAUCGGGCCCCCCCGGGCCCCCCCGGGCCCCCCCGGAAAGUAUUAUGUUACGCCGUUCGGAUCUG | -0.369 |
| GGUAUUCUGCAAGUACUGUAGAUGUUAUAGAAAUGAUGGAGGAUGAUAAAGUUGAUCUGAAUUUGAUUGUUGCCCUCAUCCGAUACAUUG | -1.28 |
| GCAGGAAGUAAAAACAAAUGGAAAUGCUUCGGAUAGUGGCAGGGGUGGGGGUUGCUAAGGAAACGGUGGGAUGGGAGUGGGUAAAGAGUU | 0.735 |
| ACUGAUGAGAGCCUGAGGAGCCAUUUUGAGCAAUGGGGAACGCUCACGGACUGUGUGGUAAGAUUUGGAAGGGACAAAGCAGUAAAACAG | 0.564 |
| CUGUGCUACACAUCGUAUGUACCGAAUCGGGUUUUUUUGGGUUUUUUUGGGAAAAAAAGGGAAAGUAUUAUGUUACGCCGUUCGGAUCUG | -1.27 |
| CCUGUGCUACACAUCGUAUGUACCGAAUCGGUUUUUUUGGGGUUUUUUUGGGUUUUUUUGGAAAGUAUUAUGUUACGCCGUUCGGAUCUG | -0.71 |
| UAACUUUAGAGGAGUAUCUGAUGGAUAUGGCAGUGGACGUGGAUUUGGGGAUGGCUAUAAUGGGUAUGGAGGAGGACCUGGAGGUGGCAA | 0.49 |

Study 2
Target: Prothrombin, mature alpha-thrombin (F2, Homo sapiens, UniProt P00734)
Method: aptamer microarray, sandwich
Molecule type: DNA with 2'F-ANA
Matrix: in vitro
Tested at: 200 nM
Notes: whole 15-mer aptamer, many near background
Together with: Cy3 exosite-II aptamer, 400 nM
Direction: higher = stronger binding
Sequence: GGTTGGTGTGGTTGG
| Modification | mean fluorescence intensity [a.u.] |
| --- | --- |
| 2'F-ANA at 1 3 4 8 10 12 13 14 | 53.5 |
| 2'F-ANA at 1 2 3 8 9 10 11 15 | 65.2 |
| 2'F-ANA at 3 8 9 13 14 15 | 644 |
| 2'F-ANA at 3 4 5 8 11 13 14 | 49.3 |
| 2'F-ANA at 5 7 8 10 13 14 | 62 |
| 2'F-ANA at 2 4 7 13 14 15 | 107 |
| 2'F-ANA at 2 4 5 6 9 11 13 14 | 46 |
| 2'F-ANA at 1 4 7 9 11 12 15 | 201 |

Study 3
Target: Centromere-binding protein 1, full length, His-tagged (CBF1, Saccharomyces cerevisiae, UniProt P17106, residues 1-351)
Sequence of UniProt P17106 (whole entry, looked up): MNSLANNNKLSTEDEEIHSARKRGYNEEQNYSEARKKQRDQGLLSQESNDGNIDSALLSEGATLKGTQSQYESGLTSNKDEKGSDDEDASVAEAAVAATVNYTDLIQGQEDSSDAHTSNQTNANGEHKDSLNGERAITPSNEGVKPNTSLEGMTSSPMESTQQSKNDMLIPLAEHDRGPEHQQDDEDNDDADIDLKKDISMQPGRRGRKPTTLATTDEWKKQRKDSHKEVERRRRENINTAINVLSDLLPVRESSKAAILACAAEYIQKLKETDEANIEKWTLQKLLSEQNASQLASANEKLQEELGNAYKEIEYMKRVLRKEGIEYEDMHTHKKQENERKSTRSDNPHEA
Method: competition protein-binding microarray
Molecule type: double-stranded DNA, one strand shown
Matrix: in vitro
Tested at: 2 µM
Notes: whole 60-bp probe, lowest competitor level
Together with: Pho4 competitor, 0.05 µM
Direction: higher = stronger binding
All sequences stand within: … GTCTTGATTCGCTTGACGCTGCTG
| Sequence | fluorescence intensity |
| --- | --- |
| AACCTGTCCAAATACCACATGCTTTCCATCGAGCCA | 103 a.u. |
| CATACCCAACCTTTCCACGTGTTTTAAGATATTTGT | 1020 a.u. |
| GAGCGCCATTGTACCCACGTGTAACTGGGGCGAAGG | 774 a.u. |
| CATACCCAACCTTGTTCTGTGGGTGAAGATATTTGT | 71.4 a.u. |
| CATACCCAACCTTGGTTGGTGGGTGAAGATATTTGT | 62.4 a.u. |
| CTAACGAAGGTTTGGAGCGTGGGTGACAAGCCAAGT | 52.2 a.u. |
| AAATTACTAAGTTGTCACTATACTTACCCCGTATGA | 76 a.u. |
| ATTGACATAATCAGAAACGTGCTTTATCAATTGTGC | 202 a.u. |

Further values, each from its own experiment
| Molecule | target | assay | test system | setting | measurement | value |
| --- | --- | --- | --- | --- | --- | --- |
| SHDLAPQFL | HLA class I histocompatibility antigen, A alpha chain, allele A*25:01 (Homo sapiens, UniProt P04439) | peptide-MHC binding | peptide | concentration not given | binding | inactive |

A few entries again (study 3):
| Sequence | fluorescence intensity |
| --- | --- |
| CATACCCAACCTTTCCACGTGTTTTAAGATATTTGT | 1020 a.u. |
| GAGCGCCATTGTACCCACGTGTAACTGGGGCGAAGG | 774 a.u. |
| CATACCCAACCTTGTTCTGTGGGTGAAGATATTTGT | 71.4 a.u. |
